Measured values pooled from the literature.
Lines come from different studies, so protocols differ.

`CC[C@H](C)[C@@H]([C@@H](CC(=O)N1C[C@@H](N=[N+]=[N-])C[C@H]1[C@H](OC)[C@@H](C)C(=O)N[C@@H](Cc1ccccc1)C(=O)OC)OC)N(C)C(=O)[C@@H](NC(=O)[C@@H](NC)C(C)C)[C@H](C)N=[N+]=[N-]` has a GI50 of 0.000279 µM (MOLM-13; cell growth or viability, resazurin).
For `CCC(=C(c1ccc(Cl)cc1)c1ccc(OCCCN(C)C)cc1)c1ccc(OC)cc1`, the GI50 was 8.74 µM (HCC 2998; cell growth or viability, SRB).
For `CC[C@H](C)[C@H]1[C@H](OC)CC(=O)N2C[C@H](C[C@H]2[C@H](OC)[C@@H](C)C(=O)N[C@@H](Cc2ccccc2)C(=O)OC)NC(=O)CCCC(=O)N[C@@H](C)[C@H](NC(=O)[C@@H](NC)C(C)C)C(=O)N1C`, the GI50 was greater than 1 µM (SW780; cell growth or viability, resazurin).
For `CC(=C(c1ccc(O)cc1)c1ccc(Cl)cc1)c1ccc(Cl)cc1`, the GI50 was 0.75 µM (NCI-60 cell lines; NCI five-dose screen; median over 60 lines).
`COC1CN([C@H]2CC[C@H]([C@@]3(C)Oc4c(Cl)cc(C(=O)NCc5c(SC)cc(C)[nH]c5=O)c(C)c4O3)CC2)C1` has a GI50 of 0.05 µM (HT1197; cell growth or viability, ATP luminescence; 12 days).
For `Nc1nc2cc(CC[C@H]3C[C@@H](n4ccc5c(N)ncnc54)[C@H](O)[C@@H]3O)ccc2cc1Br`, the GI50 was 0.0019 µM (A-427; cell growth or viability, MTT; 6 days).
For `COc1cccc2c(NCc3ccccc3)nc(Nc3cccc(F)c3)nc12`, the GI50 was 8 µM (HCT-15; cell growth or viability; 24 h).
`CC/C=C\C/C=C\C/C=C\C/C=C\C/C=C\C/C=C\CCC(=O)Nc1ccn(C2OC(CO)C(O)C2(F)F)c(=O)n1` (centres unmarked) gave a GI50 of 10.6 µM (HCC 2998; cell growth or viability, SRB).
`C1=[N+]2CCCC[N+]3=Cc4ccc5[n]4[Au-]23[n]2c1ccc2-c1nc2ccccc2nc1-5.F[P-](F)(F)(F)(F)F` gave a GI50 of 11 µM (ovarian cancer cell lines; NCI60 panel mean).
With `CCN1CCN(Cc2ccc(C(=O)Nc3ccc(C)c(NCc4cnc5[nH]ccc5c4OC)c3)cc2C(F)(F)F)CC1` the GI50 was 1.1 µM (SNU-449; cell growth or viability; 48 h).
For `CC[C@H](C)[C@@H]([C@@H](CC(=O)N1C[C@@H](N=[N+]=[N-])C[C@H]1[C@H](OC)[C@@H](C)C(=O)N[C@@H](Cc1ccccc1)C(=O)OC)OC)N(C)C(=O)[C@@H](NC(=O)[C@@H](NC)C(C)C)C(C)C`, the GI50 was 0.000224 µM (MOLM-13; cell growth or viability, resazurin).
`CC(C)C1=C(O)C(=O)C2=C(C1=O)[C@H](O)[C@@H](O)[C@H]1C(C)(C)CCC[C@]21C` gave a GI50 of 91 µM (MCR5; cell growth or viability, MTT; 72 h).
The GI50 of `FC(F)(F)c1ccc(CNc2nc(NCc3ccccc3)c3ccccc3n2)cc1` is reported as 3.4 µM (HCT-15; cell growth or viability; 24 h).
`CC(Cc1ccc(Cl)cc1)=C(c1ccc(Cl)cc1)c1ccc(OCCN(C)C)cc1` has a GI50 of 3.92 µM (NCI-60 cell lines; NCI five-dose screen; mean over 60 lines).

A few entries again:
`CC[C@H](C)[C@@H]([C@@H](CC(=O)N1C[C@@H](N=[N+]=[N-])C[C@H]1[C@H](OC)[C@@H](C)C(=O)N[C@@H](Cc1ccccc1)C(=O)OC)OC)N(C)C(=O)[C@@H](NC(=O)[C@@H](NC)C(C)C)[C@H](C)N=[N+]=[N-]` has a GI50 of 0.000279 µM (MOLM-13; cell growth or viability, resazurin).
For `COc1cccc2c(NCc3ccccc3)nc(Nc3cccc(F)c3)nc12`, the GI50 was 8 µM (HCT-15; cell growth or viability; 24 h).
